{"data": "Experimental data from different studies", "note": "Every numbered part comes from another study and shows a few of its results, in no order."}
{"data": "Set 1", "target": "Prothrombin, mature alpha-thrombin (F2, Homo sapiens, UniProt P00734)", "technique": "aptamer microarray, sandwich", "molecule type": "DNA with 2'F-ANA", "matrix": "in vitro", "concentration": "200 nM", "notes": "whole 15-mer aptamer, many near background", "added": "Cy3 exosite-II aptamer, 400 nM", "direction": "higher = stronger binding", "oligonucleotide": "GGTTGGTGTGGTTGG"}
{"Modification": "2'F-ANA at 1 3 7 8 11 12 14 15", "mean fluorescence intensity [a.u.]": 139}
{"Modification": "2'F-ANA at 1 2 4 7 8 9 11 13", "mean fluorescence intensity [a.u.]": 85.4}
{"Modification": "2'F-ANA at 3 6 7 9 10 13 14", "mean fluorescence intensity [a.u.]": 375}
{"Modification": "2'F-ANA at 2 4 5 6 10 11 15", "mean fluorescence intensity [a.u.]": 56.2}
{"Modification": "2'F-ANA at 1 2 4 6 7 8 9 10 12 15", "mean fluorescence intensity [a.u.]": 60.2}
{"Modification": "2'F-ANA at 1 2 3 5 7 10 11 12 13 14 15", "mean fluorescence intensity [a.u.]": 60.7}
{"Modification": "2'F-ANA at 1 2 4 5 6 7 8 12 14", "mean fluorescence intensity [a.u.]": 52.6}
{"Modification": "2'F-ANA at 1 2 3 5 6 8 13", "mean fluorescence intensity [a.u.]": 54.9}
{"Modification": "2'F-ANA at 1 2 4 6 8 9 13", "mean fluorescence intensity [a.u.]": 79.7}
{"Modification": "2'F-ANA at 1 5 7 9 10 13", "mean fluorescence intensity [a.u.]": 46.3}
{"Modification": "2'F-ANA at 2 6 7 8 13", "mean fluorescence intensity [a.u.]": 347}
{"Modification": "2'F-ANA at 4 7 11 13", "mean fluorescence intensity [a.u.]": 233}
{"Modification": "2'F-ANA at 1 4 6 10 11 13 14 15", "mean fluorescence intensity [a.u.]": 54.1}
{"Modification": "2'F-ANA at 1 2 3 4 6 8 9 10 12", "mean fluorescence intensity [a.u.]": 95.9}
{"Modification": "2'F-ANA at 1 3 7 9 10 11 12 14", "mean fluorescence intensity [a.u.]": 76.7}
{"Modification": "2'F-ANA at 4 5 8 11 12 15", "mean fluorescence intensity [a.u.]": 104}
{"Modification": "2'F-ANA at 1 2 3 6 7 8 10 13 15", "mean fluorescence intensity [a.u.]": 103}
{"Modification": "2'F-ANA at 3 5 9 10", "mean fluorescence intensity [a.u.]": 56.9}
{"Modification": "2'F-ANA at 1 4 6 7 8 11 12 13", "mean fluorescence intensity [a.u.]": 181}
{"Modification": "2'F-ANA at 4 5 8 9 10 11 13 14 15", "mean fluorescence intensity [a.u.]": 46.7}
{"Modification": "2'F-ANA at 2 3 8 9 10 11 13", "mean fluorescence intensity [a.u.]": 390}
{"Modification": "2'F-ANA at 1 4 5 6 8 11 12 13 15", "mean fluorescence intensity [a.u.]": 67.8}
{"data": "Set 2", "target": "Interferon regulatory factor 3, full length, phosphomimetic (IRF3, Homo sapiens, UniProt Q14653, residues 1-427, S386D/S396D/S398D/S402D/T404D/S405D)", "technique": "protein-binding microarray", "molecule type": "double-stranded DNA, one strand shown", "matrix": "in vitro", "concentration": "2540 nM top", "notes": "60-bp whole probe", "added": "salmon DNA 0.4 mg/ml", "relative to": "random background probes", "direction": "higher = stronger binding", "shared flanks, not repeated": "GCCTAGCAC … GTCTTGATTCGCTTGACGCTGCTG", "UniProt Q14653, sequence (whole entry, unmodified, looked up)": "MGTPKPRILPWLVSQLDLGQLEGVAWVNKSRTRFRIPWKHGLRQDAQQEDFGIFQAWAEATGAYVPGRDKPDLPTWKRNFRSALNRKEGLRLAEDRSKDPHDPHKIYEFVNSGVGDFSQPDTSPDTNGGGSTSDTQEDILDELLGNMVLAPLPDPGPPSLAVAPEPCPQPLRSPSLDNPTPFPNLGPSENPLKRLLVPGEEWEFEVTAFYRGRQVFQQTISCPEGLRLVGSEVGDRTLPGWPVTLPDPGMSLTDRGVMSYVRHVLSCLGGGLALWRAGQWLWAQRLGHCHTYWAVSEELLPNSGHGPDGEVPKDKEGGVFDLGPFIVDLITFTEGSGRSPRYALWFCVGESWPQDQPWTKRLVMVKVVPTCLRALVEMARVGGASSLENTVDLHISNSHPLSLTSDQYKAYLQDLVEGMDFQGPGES"}
{"Oligonucleotide": "TATGTTCCCTATTTAAGGCAGTGCTAG", "fitted relative affinity": "3.69 z-score"}
{"Oligonucleotide": "TTATGACTGGGGACTGGGTTAGTGCTA", "fitted relative affinity": "-0.696 z-score"}
{"Oligonucleotide": "GACGATATCAGACTGGATACGTGCTAG", "fitted relative affinity": "0.368 z-score"}
{"Oligonucleotide": "TCACATCTCCAGTAGCCTACTGTGCTA", "fitted relative affinity": "1.18 z-score"}
{"Oligonucleotide": "TTAGCTATCAGTATCGATTAGTGCTAG", "fitted relative affinity": "1.57 z-score"}
{"Oligonucleotide": "TCAAGTCTGGGCTACAACACTGTGCTA", "fitted relative affinity": "-0.763 z-score"}
{"Oligonucleotide": "GACGATATCAGTATCGAGTCGTGCTAG", "fitted relative affinity": "1.59 z-score"}
{"Oligonucleotide": "TTAGGTCTCAGTCTCGATTAGTGCTAG", "fitted relative affinity": "1.2 z-score"}
{"Oligonucleotide": "GTCGGACTGGGTATCGGGACGTGCTAG", "fitted relative affinity": "0.155 z-score"}
{"Oligonucleotide": "GACGATTTCGGCTTTCGAGACGTGCTA", "fitted relative affinity": "1.64 z-score"}
{"Oligonucleotide": "GACGGTATCCTTCTCCTTACGTGCTAG", "fitted relative affinity": "7.02 z-score"}
{"Oligonucleotide": "CACCACATTTTTTTCATTATGTGCTAG", "fitted relative affinity": "0.759 z-score"}
{"Oligonucleotide": "AGCAGGGGCGCAGGTAGGTGGTGCTAG", "fitted relative affinity": "-1.5 z-score"}
{"Oligonucleotide": "TTAGGTTTCCTACTGCTTCAGTGCTAG", "fitted relative affinity": "4.87 z-score"}
{"Oligonucleotide": "GACAGACTGGGACTGGGGACGTGCTAG", "fitted relative affinity": "-0.684 z-score"}
{"Oligonucleotide": "GACGGTATCGACTTTGGGGACGTGCTA", "fitted relative affinity": "0.767 z-score"}
{"Oligonucleotide": "CACCCCGCCCCTCCTTGGCCGTGCTAG", "fitted relative affinity": "-0.235 z-score"}
{"Oligonucleotide": "TCAGATTTCCCCACCATACTGTGCTAG", "fitted relative affinity": "1.27 z-score"}
{"Oligonucleotide": "TTAGGCTTCCTTATCCTTTAGTGCTAG", "fitted relative affinity": "0.947 z-score"}
{"data": "Set 3", "target": "Fragile X messenger ribonucleoprotein 1, C-terminal low-complexity region (Fmr1, Mus musculus, UniProt P35922)", "technique": "RNA Bind-n-Seq", "molecule type": "RNA", "matrix": "in vitro", "concentration": "200 nM", "notes": "whole 134-nt RNA, ends assumed", "added": "150 mM LiCl", "relative to": "input library", "direction": "higher = stronger binding", "all molecules": "7-deaza-guanosine replaces G", "shared flanks, not repeated": "GGGAGUUCUACAGUCCGACGAUC … UGGAAUUCUCGGGUGUCAAGG"}
{"Oligonucleotide": "ACCAUGCAGGUGGGCAUCUUUGGGAAGUGGGGCAAGGGGGGGAUAGGGAGGGGGGUACCACUUUGGGAACAGGUGGUCCCAGGUCGUUUC", "log2 enrichment": 1.26}
{"Oligonucleotide": "UCCUCAAGUCCUGUGCUACACAUCGUAUGUACCGAAUCGGGCGGGCGGGCGGAAAGUAUUAUGUUACGCCGUUCGGAUCUGCACUUCCAG", "log2 enrichment": 0.685}
{"Oligonucleotide": "AAGUCCUGUGCUACACAUCGUAUGUACCGAAUCGGGGUUUGGGUUUGGGGUUUGGGGAAAGUAUUAUGUUACGCCGUUCGGAUCUGCACU", "log2 enrichment": -1.28}
{"Oligonucleotide": "GCAGGAAGUAAAAACAAAUGGAAAUGCUUCGGAUAGUUGCAGGGGUGGGGGUUGCUAAGGAAAGGGUGGGAUGGGAGUGGGUAAAGAGUU", "log2 enrichment": 1.46}
{"Oligonucleotide": "CUCAAGUCCUGUGCUACACAUCGUAUGUACCGAAUCGGGCGGGGCGGGCGGGGAAAGUAUUAUGUUACGCCGUUCGGAUCUGCACUUCCA", "log2 enrichment": -0.0526}
{"Oligonucleotide": "CCUGUGCUACACAUCGUAUGUACCGAAUCGGGGUUUUUGGGGUUUUUGGGGAAAAAGGGGAAAGUAUUAUGUUACGCCGUUCGGAUCUGC", "log2 enrichment": -0.31}
{"Oligonucleotide": "CCUGUGCUACACAUCGUAUGUACCGAAUCGGGGAAAAAAAGGGGAGGGGAAAAAAAGGGGAAAGUAUUAUGUUACGCCGUUCGGAUCUGC", "log2 enrichment": 1.21}
{"Oligonucleotide": "CAAGUCCUGUGCUACACAUCGUAUGUACCGAAUCGGUUUUUUUGGUGGAAAAAGGAAAGUAUUAUGUUACGCCGUUCGGAUCUGCACUUC", "log2 enrichment": -1.28}
{"data": "Set 4", "target": "RNA binding protein fox-1 homolog 2, RRM domain, GST-SBP tag (RBFOX2, Homo sapiens, UniProt O43251-10, residues 100-194)", "technique": "RNA Bind-n-Seq", "molecule type": "RNA", "matrix": "in vitro", "concentration": "365 nM", "notes": "natural RNA segment, single round, ends assumed", "relative to": "no-protein control", "direction": "higher = stronger binding", "shared flanks, not repeated": "GGGAGUUCUACAGUCCGACGAUC … UGGAAUUCUCGGGUGCCAA", "Target sequence (chain)": "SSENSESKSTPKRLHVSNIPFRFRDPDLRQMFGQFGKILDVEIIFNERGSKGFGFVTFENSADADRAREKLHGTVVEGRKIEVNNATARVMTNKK"}
{"Oligonucleotide": "CCUGCCUGCAAAGGUUCCCUGCAUGCCUCUUCCCCUGAGCCCAGGGGUACCUGGUCCCCAUUUCCUACUCCUCUUUUAACAAAAGAGAAAAGAAUUCCAAACCACCACCA", "RBNS enrichment (R)": 16}
{"Oligonucleotide": "ACUGUGCUAGCUCUUGGGUUGAGGAAUGGAAUGGGUAGCCUUCUGCUUACUGGAGAUGCACAGAGAAACAUGGCUGAAAACAGCUUUAAAAAGAACAUGUCUUUGGGUUC", "RBNS enrichment (R)": 1.37}
{"Oligonucleotide": "CCUCAGUCCCUGCUCCAAACUAUGAAGCUCACCCUUCAUUUUUCCUCCCUGCUAUUGUGGACCUAAGCAAUUACAGUUUAAAUUCUGUAUACAGCACUAGUCAAGACAAU", "RBNS enrichment (R)": 0.306}
{"Oligonucleotide": "ACCUCAGGAAAACUGUGCCCUCCGCCGGCUACCUUAGCUUAGCGUGUCAGCGGGCGCCACAGCGGAUCAGCGGUUCCGUGUUCACUUUUGUUGUACAAUAUAUGACACAG", "RBNS enrichment (R)": 0.174}
{"Oligonucleotide": "UCCUGGACCCAGGCUUUCCCAUACCACGGGCCCAGGACUGUGGCUCCUUUUCUAAACCACCUCUGGGACUCAGCUCCCCCCGCCAAAAAAAAUGGGUCUCCUUCUGGGCU", "RBNS enrichment (R)": 0.787}
{"Oligonucleotide": "UUUUUGUAGUCAGUGUUAAUAAAACGGAUCCUGUUUGGGCCUUCAUUGUUAAGGUGGACUUCAUGGCCACUGGAAGGUCUGUUUUGGUGUUACCUGAGUGUGACACAGGC", "RBNS enrichment (R)": 0.353}
{"Oligonucleotide": "AACCUGACCGGAGCCCGCCAGUACUGGUUGGAGGGCAUGCUGCGGCAUGAGAUAGGCACCCACUACCUGCGGGGCGUGAACAACGCGCGCCAGCCGUGGCACAACGCGGA", "RBNS enrichment (R)": 0.326}
{"Oligonucleotide": "UUCUUUUAAUAUUUUAUUUUAAUUAAAAUUAGGAAAAAAUGUGUUCAACAAUUUUUUUUUUGUCCCAUCUUCUCCAAAUCAGUGGGAAAAGCUUACCUUUUGGUAUAUCU", "RBNS enrichment (R)": 0.895}
{"note": "A few entries again (set 4):"}
{"Oligonucleotide": "CCUCAGUCCCUGCUCCAAACUAUGAAGCUCACCCUUCAUUUUUCCUCCCUGCUAUUGUGGACCUAAGCAAUUACAGUUUAAAUUCUGUAUACAGCACUAGUCAAGACAAU", "RBNS enrichment (R)": 0.306}
{"Oligonucleotide": "UUCUUUUAAUAUUUUAUUUUAAUUAAAAUUAGGAAAAAAUGUGUUCAACAAUUUUUUUUUUGUCCCAUCUUCUCCAAAUCAGUGGGAAAAGCUUACCUUUUGGUAUAUCU", "RBNS enrichment (R)": 0.895}
{"Oligonucleotide": "UCCUGGACCCAGGCUUUCCCAUACCACGGGCCCAGGACUGUGGCUCCUUUUCUAAACCACCUCUGGGACUCAGCUCCCCCCGCCAAAAAAAAUGGGUCUCCUUCUGGGCU", "RBNS enrichment (R)": 0.787}
{"Oligonucleotide": "ACUGUGCUAGCUCUUGGGUUGAGGAAUGGAAUGGGUAGCCUUCUGCUUACUGGAGAUGCACAGAGAAACAUGGCUGAAAACAGCUUUAAAAAGAACAUGUCUUUGGGUUC", "RBNS enrichment (R)": 1.37}
